{"data": "Measurements pooled from the literature", "target": "Beta-1 adrenergic receptor (ADRB1, Homo sapiens, UniProt P08588)", "note": "Protocols differ between the studies behind these lines. Values joined by “and” are separate records of one study, mostly repeats; a detail may differ."}
{"SMILES": "COc1ccc(F)cc1S(=O)(=O)Nc1cnc2c(c1)C(=O)NCCO2", "test": "ligand displacement, radioligand", "setting": "10 µM", "measurement": "inhibition", "result": "-1%"}
{"SMILES": "CS(C)(=O)=Nc1ccc(-c2ccc(-c3nc4cc(O[C@@H]5CO[C@H]6[C@@H]5OC[C@H]6O)[nH]c4cc3F)cc2)cc1", "test": "calcium signal, antagonist", "setting": "10 µM", "measurement": "inhibition", "result": "-8%"}
{"SMILES": "CCc1nnc(-c2c(OC)cc(-c3cnc4cc(-c5cnn(C)c5)ccn34)cc2OC)o1", "test": "agonist, radioligand binding", "setting": "10 µM", "scale": "baseline: control", "measurement": "specific binding", "result": "102%"}
{"SMILES": "C[C@@H]1COCCN1c1nc(NCc2cccnc2C(F)(F)F)c2cccnc2n1", "test": "binding", "setting": "CEREP panel", "measurement": "IC50", "result": "> 100 µM"}
{"SMILES": "Cc1cc(Nc2nc(C[C@@]3(C(=O)O)CCN(Cc4cccc(Cl)c4F)[C@H](C)C3)cc(C)c2F)[nH]n1", "test": "inhibitor", "setting": "10 µM", "measurement": "inhibition", "result": "13.3%"}
{"SMILES": "CN[C@@H]1[C@H](O)[C@H](NC)[C@H]2O[C@]3(O)[C@H](O[C@@H]2[C@H]1O)O[C@H](C)C[C@H]3NC(=O)Cc1cc(Cl)ccn1", "test": "ligand displacement, radioligand", "setting": "10 µM", "measurement": "inhibition", "result": "2%"}
{"SMILES": "O=C(O)c1ccc(-c2nc(-c3ccccc3Cl)c3sccn23)cc1", "test": "ligand displacement, radioligand", "setting": "10 µM", "measurement": "binding vs control", "result": "90.5% and 96.8%"}
{"SMILES": "N[C@H](C(=O)N1CCCC1)C1CCN(c2nccc3c(-c4ncc(Cl)cc4Cl)cccc23)CC1", "test": "functional response, antagonist", "setting": "10 µM", "measurement": "inhibition", "result": "21%"}
{"SMILES": "C/C(=N\\OCCCN1CCCCC1)c1ccc(C(F)(F)F)cc1", "test": "agonist, cAMP", "setting": "10 µM", "measurement": "activation", "result": "6.38%"}
{"SMILES": "CCOC(=O)[C@](CC)(CCCSCCOCCOCCNC(=O)c1ccc(-c2c3ccc(=N)c(S(=O)(=O)O)c-3oc3c(S(=O)(=O)O)c(N)ccc23)c(C(=O)O)c1)NC(=O)c1ccc(C2CC2)c(Cc2ccc(F)cc2)n1", "test": "ligand displacement, radioligand", "setting": "10 µM", "measurement": "inhibition", "result": "9%"}
{"SMILES": "CCN(CC)CCOc1ccc(-c2nnn(Cc3ccc(OC)cc3)c2N)cc1", "test": "radioligand binding", "test system": "HEK293", "setting": "10 µM, safety profiling", "measurement": "inhibition", "result": "-11.8%"}
{"SMILES": "Cc1sc2c(c1C)C(c1ccc(Cl)cc1)=NC(CC(=O)OC(C)(C)C)c1nnc(C)n1-2 (stereo not shown)", "test": "ligand displacement, radioligand", "setting": "1 µM", "measurement": "inhibition", "result": "1%"}
{"SMILES": "Cc1cc(-c2ccc3ccccc3c2)nnc1NCCN1CCN(C)CC1", "test": "antagonist", "setting": "10000 nM", "scale": "baseline: control", "measurement": "activity", "result": "0%"}
